Published values collected from several papers.
Lines come from different studies, so protocols differ. Several values in a cell are separate wells, animals, samples, runs or records. ± gives the spread as reported.
Sequence of UniProt P17812 (whole entry, looked up): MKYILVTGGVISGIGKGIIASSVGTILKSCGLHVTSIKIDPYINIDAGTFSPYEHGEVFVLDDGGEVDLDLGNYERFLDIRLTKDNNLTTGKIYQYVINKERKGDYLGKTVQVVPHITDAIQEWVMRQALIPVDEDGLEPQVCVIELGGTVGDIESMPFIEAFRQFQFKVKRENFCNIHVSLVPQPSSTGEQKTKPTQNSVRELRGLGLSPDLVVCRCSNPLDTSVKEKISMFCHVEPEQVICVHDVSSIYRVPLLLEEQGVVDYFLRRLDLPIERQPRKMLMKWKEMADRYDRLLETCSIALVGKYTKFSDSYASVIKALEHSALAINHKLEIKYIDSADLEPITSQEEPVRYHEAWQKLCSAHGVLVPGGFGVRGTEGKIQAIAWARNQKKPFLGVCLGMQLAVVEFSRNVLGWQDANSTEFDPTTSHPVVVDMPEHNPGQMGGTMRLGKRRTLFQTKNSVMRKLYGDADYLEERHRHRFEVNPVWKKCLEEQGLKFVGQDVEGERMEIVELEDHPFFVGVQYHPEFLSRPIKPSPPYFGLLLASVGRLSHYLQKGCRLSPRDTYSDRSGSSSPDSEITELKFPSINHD

SMILES | tested on | test | test system | conditions | how to read | endpoint | result
Cc1ccc(F)c2cc(C(=O)N[C@@H]3CCC[C@H](N4CC[C@H](N(C)S(C)(=O)=O)C4)C3)[nH]c12 | – | – | CD1 mouse, plasma | intravenous, 1 mg/kg, 2 h | – | plasma concentration | 36.2 ng/mL
CO[C@H]1C[C@@H]2CC[C@@H](C)[C@@](O)(O2)C(=O)C(=O)N2CCCC[C@H]2C(=O)O[C@H]([C@H](C)C[C@@H]2CC[C@@H](OC(=O)NCCOCCOCCOCCOCCOCCOCCOCCOCCC(=O)N3CCc4cc(Cn5nc(-c6ccc7oc(N)nc7c6)c6c(N)ncnc65)ccc4C3)[C@H](OC)C2)C[C@@H](O)[C@H](C)/C=C(\C)[C@@H](O)[C@@H](OC)C(=O)[C@H](C)C[C@H](C)/C=C/C=C/C=C/1C | – | phase 1 dose escalation, measured: vomiting | advanced solid tumour patients | intravenous, 16 mg weekly, grade ≥3 | – | TRAE incidence | 0%
CC(C)(C(=O)NC1C2CC3CC1CC(C(N)=O)(C3)C2)N1CCN(c2ccc(C(F)(F)F)cn2)CC1 (centres unmarked) | – | – | human, plasma | 1 mg once daily, 5 days, median | – | dose-normalised free Cmax | 0.096 (ng/mL)/mg
CCCCCOc1ccc(-c2ccc(-c3ccc(C(=O)N[C@H]4C[C@@H](O)[C@@H](OCC[N+](C)(C)C)NC(=O)[C@@H]5[C@@H](O)[C@@H](C)CN5C(=O)[C@H]([C@@H](C)O)NC(=O)[C@H]([C@H](O)[C@@H](O)c5ccc(O)cc5)NC(=O)[C@@H]5C[C@@H](O)CN5C(=O)[C@H]([C@@H](C)O)NC4=O)cc3)cc2)cc1 | – | – | adult ICU patients, mITT, serum | dose not given, Follow-up | – | albumin | 36.9 g/L
COc1cc2c(Oc3ccc4[nH]c(C)cc4c3F)ccnc2cc1OCC1(N)CC1 | – | – | paediatric refractory sarcoma patients | 10 mg | – | hand-foot syndrome incidence | 50%
CC(C)[C@@H]1NC(=O)CNC(=O)[C@H](CC(N)=O)NC(=O)[C@H](CCCNC(=N)N)NC(=O)[C@H](Cc2ccc(O)cc2)NC(=O)[C@H](C(C)C)NC(=O)[C@@H](NC(=O)[C@@H](NC(=O)[C@H](CC(N)=O)NC(=O)[C@H](Cc2c[nH]c3ccccc23)NC(=O)[C@H](C)NC(=O)[C@H](Cc2ccccc2)NC(=O)CN)C(C)C)CSSC[C@@H](C(=O)N[C@@H](Cc2cnc[nH]2)C(=O)N[C@@H](CCCNC(=N)N)C(=O)N[C@@H](CCCNC(=N)N)C(=O)N[C@@H](C)C(=O)N[C@@H](CC(N)=O)C(N)=O)NC(=O)[C@H](C(C)C)NC(=O)[C@H](CCCNC(=N)N)NC1=O | – | – | ICR mice, serum | intraperitoneal, 5 mg/kg, day 5 | – | phosphorus | 3.22 ± 0.23 mmol/L
CN1CC[C@@H](c2c(O)cc(O)c3c(=O)cc(-c4ccc(C(F)(F)F)cc4Cl)oc23)[C@@H]1CO | – | measured: Diarrhea | AML | oral, 200 mg, intermittent dosing | – | patients with adverse event | 50%
COc1ccc(CCC2CCCC(CCc3ccc(OC)cc3)N2C[C@@H](O)CO)cc1.Cl (stereo in doubt) | – | – | rabbit Purkinje fibres | 0.03 µM, cycle length 0.5 s | relative to: baseline | Vmax change | 2.9 ± 2.1%
C[C@H]1CN(c2n[nH]c3nc(N[C@H]4CC[C@H](NS(=O)(=O)CCC(F)(F)F)CC4)ncc23)CCO1 | CTP synthase 1 (Homo sapiens, UniProt P17812) | Kinobeads competition, measured: CTPS | – | 0.8 µM, unit not given | relative to: vehicle | remaining binding | 1.34
NCCCC[C@@H]1NC(=O)[C@@H](Cc2c[nH]c3ccccc23)NC(=O)[C@H](c2ccccc2)NC(=O)[C@@H]2C[C@@H](OC(=O)NCCN)CN2C(=O)[C@H](Cc2ccccc2)NC(=O)[C@H](Cc2ccc(OCc3ccccc3)cc2)NC1=O | – | – | healthy volunteers, female | 1950 µg twice daily, 1.5 h, post hoc | – | placebo-corrected QTcF change | 10.5 ms
NCCOCC(=O)N1CCCC(C(=O)NCc2nc(-c3ccc(-c4ccc(F)cc4)cc3)cs2)C1 (centres unmarked) | – | – | male Sprague Dawley rat | intravenous, 1 mg/kg | – | clearance | 50 mL/min/kg
C[C@]1(CO)Cc2ncn(-c3ccc(C#N)c(Cl)c3)c2C(=O)O1 | – | measured: involuntary muscle contractions | human | 5 mg single dose | – | subjects with drug-related TEAE | 0%
CC[C@H](C)[C@@H]1NC(=O)[C@@H]2CSSC[C@H](NC(=O)[C@H](CCCNC(=N)N)NC(=O)[C@@H]3CSSC[C@H](NC1=O)C(=O)N[C@@H]([C@@H](C)O)C(=O)N[C@@H](CCCNC(=N)N)C(=O)NCC(=O)N[C@@H](Cc1ccccc1)C(=O)N3)C(=O)N[C@@H](CC(C)C)C(=O)N[C@H]1CSSC[C@H](NC(=O)[C@H](C(C)C)NC(=O)CNC(=O)[C@H](CCCNC(=N)N)NC(=O)[C@H](CCCNC(=N)N)NC1=O)C(=O)N[C@@H](CCCNC(=N)N)C(=O)N2 | – | – | Sprague-Dawley rats, male, lung | 10 mg/kg | direction not given | foreign material score | 1 to 2
CCc1ccc(CC/C=C/c2ccc3c(c2)C(=O)CC3)cc1 | – | – | Sprague-Dawley rat, female | oral, 120 mg/kg/day, 14 days | – | HDW | 24.1 g/L
O=C(O)CNCP(=O)(O)O | – | – | whole cow milk | 200 nM nominal | – | dose fraction in skim milk | 99.1%
Clc1ccc(-c2ccccc2)cc1 | – | – | Sprague-Dawley rats, female, serum | inhalation, 23 µg/rat, 0 h after exposure | – | creatinine | 0.3 ± 0.05 mg/dL
[O-][S+]1CCc2nc(N3CCC(c4ncc(Cl)cn4)CC3)nc(NC3(CO)CCC3)c21 (centres unmarked) | – | measured: Diarrhoea | healthy male humans | 36 mg single dose | – | adverse event incidence | 16.7%
O=C(Nc1ccccc1)C1CCN(C(=O)Oc2cccnc2)CC1 | – | – | healthy women | oral, 100 mg, 9 days | – | adverse event Dyspnoea | 7.7%
CC[C@H](C)[C@H](NC(=O)[C@H](CCCCN)NC(=O)[C@H](CCC(=O)O)NC(=O)[C@H](CCCCN)NC(=O)[C@H](CO)NC(=O)[C@H](CCCCN)NC(=O)[C@H](CCCNC(=N)N)NC(=O)[C@H](Cc1ccccc1)NC(=O)[C@H](Cc1ccccc1)NC(=O)[C@H](CC(=O)O)NC(=O)CNC(=O)[C@H](CC(C)C)NC(=O)[C@@H](N)CC(C)C)C(=O)NCC(=O)N[C@@H](CCCCN)C(=O)N[C@@H](CCC(=O)O)C(=O)N[C@@H](Cc1ccccc1)C(=O)N[C@@H](CCCCN)C(=O)N[C@@H](CCCNC(=N)N)C(=O)N[C@H](C(=O)N[C@H](C(=O)N[C@@H](CCC(N)=O)C(=O)N[C@@H](CCCNC(=N)N)C(=O)N[C@H](C(=O)N[C@@H](CCCCN)C(=O)N[C@@H](CC(=O)O)C(=O)N[C@@H](Cc1ccccc1)C(=O)N[C@@H](CC(C)C)C(=O)N[C@@H](CCCNC(=N)N)C(=O)N[C@@H](CC(N)=O)C(=O)N[C@@H](CC(C)C)C(=O)N[C@H](C(=O)N1CCC[C@H]1C(=O)N[C@@H](CCCNC(=N)N)C(=O)N[C@H](C(=O)N[C@@H](CCC(=O)O)C(=O)N[C@@H](CO)C(=O)O)[C@@H](C)O)C(C)C)[C@@H](C)CC)C(C)C)[C@@H](C)CC | – | LC-MS | buffer with human neutrophil elastase | 40 µM, 10 min, pH 7.5, 37 °C | relative to: 0 h | remaining intact peptide | 46.1% and 32.1% and 41.2%
CC(C)C(=O)OC[C@H]1O[C@@H](n2ccc(NO)nc2=O)[C@H](O)[C@@H]1O | – | – | rat maternal blood dialysate | 5 ng/mL, low concentration, three cycles, with: NHC 25 ng/mL | – | freeze-thaw stability | 100.1 ± 0.78%
O=S(=O)(Nc1ccccc1)c1ccc(NC(=S)Nc2ccccc2)cc1 | – | – | male mouse, blood | oral, 5 mg/kg daily, 14 days | – | albumin level | 2.9 g/dL
C[C@@H](NC(=O)N1C(=O)[C@H](Cc2ccnc(N)c2)[C@H]1C(=O)O)C1CCCCC1 | – | – | healthy adult Chinese volunteers | continuous intravenous infusion, 0.3 mg/kg/h, 5-day infusion, CTCAE 5.0 grading | – | incidence of abnormal liver function | 12.5%
O=C(c1ccc(F)c(F)c1Nc1ccc(I)cc1F)N1CC(O)([C@@H]2CCCCN2)C1 | – | – | patients aged 6 to sample A years | oral, dose not given | – | SAE leading treatment withdrawal | 0%
Cn1ncc(-c2nc(N[C@H]3CC[C@H](N)CC3)ncc2Cl)c1CC1CC1 | – | – | human patients, plasma | oral, 42 mg, day 5 | – | AUC | 4770 ng·h/mL
CCCCCCCCCCCCCCCC(=O)N[C@@H](CCC(=O)NCCCC[C@H](NC(=O)[C@H](CC(=O)O)NC(=O)[C@H](CO)NC(=O)[C@@H](NC(=O)[C@H](Cc1ccccc1)NC(=O)[C@@H](NC(=O)CNC(=O)[C@H](CCC(N)=O)NC(=O)[C@H](CO)NC(=O)[C@@H](N)Cc1c[nH]cn1)[C@@H](C)O)[C@@H](C)O)C(=O)N[C@@H](CO)C(=O)N[C@@H](CCC(=O)O)C(=O)N[C@@H](Cc1ccc(O)cc1)C(=O)N[C@@H](CC(C)C)C(=O)N[C@@H](CC(=O)O)C(=O)N[C@@H](CO)C(=O)N[C@@H](CCC(=O)O)C(=O)N[C@@H](CCCNC(=N)N)C(=O)N[C@@H](C)C(=O)N[C@@H](CCCNC(=N)N)C(=O)N[C@@H](CC(=O)O)C(=O)N[C@@H](Cc1ccccc1)C(=O)N[C@H](C(=O)N[C@@H](C)C(=O)N[C@@H](Cc1c[nH]c2ccccc12)C(=O)N[C@@H](CC(C)C)C(=O)N[C@@H](CCC(=O)O)C(=O)N[C@@H](C)C(=O)NCC(=O)NCC(=O)O)C(C)C)C(=O)O | – | measured: Diarrhoea | humans all renal groups | subcutaneous, 100 µg single dose | – | treatment-related adverse events | 2.7%
Cc1cc(C)c(CNC(=O)c2cc(Cl)c3c(c2C)O[C@@](C)([C@H]2CC[C@H](N(C)C)CC2)O3)c(=O)[nH]1 | – | – | relapsed/refractory NHL patients | dose not given, trial, safety set, all TEAEs grade 5 | – | incidence of neutrophil count decreased | 0%
CC[C@H](C)[C@@H]1NC(=O)[C@@H]2CCCN2C(=O)[C@H](CC(C)C)NC(=O)[C@H](CC(C)C)NC(=O)CNC(=O)[C@@H](NC(=O)[C@@H](NC(=O)[C@H](CC(=O)O)NC(=O)CNC(=O)[C@@H](NC(=O)[C@H](C)NC(=O)CNC(=O)[C@H](CCCCN)NC(=O)[C@H](CC(C)C)NC(=O)[C@H](CC(C)C)NC(=O)[C@H](CCCCN)NC(=O)CNC(=O)[C@@H](NC(=O)[C@@H](N)CC(C)C)C(C)C)C(C)C)C(C)C)CSSC[C@@H](C(=O)O)NC1=O | – | RNA-seq, measured: Cnn2 | mouse, traumatic brain injury model, frontal cortex and hippocampus | dose not given | relative to: TBI alone | log2 fold change | -1.53
O=C1Nc2cc3[nH]nc(-c4ccncc4)c3cc2CN1Cc1ccccc1 | – | CTCAE v4.03 | advanced solid tumour patients | intravenous, 3.6 mg/kg, schedules 1/2 | – | patients with dyspnoea | 33%
COc1ccnc(C(=O)N[C@H]2COC(=O)[C@H](Cc3ccccc3)[C@@H](OC(=O)C(C)C)[C@H](C)OC2=O)c1OCOC(=O)C(C)C | – | – | water/sediment | 20 °C, whole system, geometric mean, aerobic dark | – | DT50 | 0.76 days

Excerpt of the above:
SMILES | tested on | test | test system | conditions | how to read | endpoint | result
COc1cc2c(Oc3ccc4[nH]c(C)cc4c3F)ccnc2cc1OCC1(N)CC1 | – | – | paediatric refractory sarcoma patients | 10 mg | – | hand-foot syndrome incidence | 50%
CC(C)[C@@H]1NC(=O)CNC(=O)[C@H](CC(N)=O)NC(=O)[C@H](CCCNC(=N)N)NC(=O)[C@H](Cc2ccc(O)cc2)NC(=O)[C@H](C(C)C)NC(=O)[C@@H](NC(=O)[C@@H](NC(=O)[C@H](CC(N)=O)NC(=O)[C@H](Cc2c[nH]c3ccccc23)NC(=O)[C@H](C)NC(=O)[C@H](Cc2ccccc2)NC(=O)CN)C(C)C)CSSC[C@@H](C(=O)N[C@@H](Cc2cnc[nH]2)C(=O)N[C@@H](CCCNC(=N)N)C(=O)N[C@@H](CCCNC(=N)N)C(=O)N[C@@H](C)C(=O)N[C@@H](CC(N)=O)C(N)=O)NC(=O)[C@H](C(C)C)NC(=O)[C@H](CCCNC(=N)N)NC1=O | – | – | ICR mice, serum | intraperitoneal, 5 mg/kg, day 5 | – | phosphorus | 3.22 ± 0.23 mmol/L
CN1CC[C@@H](c2c(O)cc(O)c3c(=O)cc(-c4ccc(C(F)(F)F)cc4Cl)oc23)[C@@H]1CO | – | measured: Diarrhea | AML | oral, 200 mg, intermittent dosing | – | patients with adverse event | 50%
COc1ccc(CCC2CCCC(CCc3ccc(OC)cc3)N2C[C@@H](O)CO)cc1.Cl (stereo in doubt) | – | – | rabbit Purkinje fibres | 0.03 µM, cycle length 0.5 s | relative to: baseline | Vmax change | 2.9 ± 2.1%
